Measured values collected from several papers.
Each numbered part is a random draw from the data of one study; scales do not carry over between parts.

Series 1 — method: universal PBM; molecule type: double-stranded DNA, one strand shown; medium: in vitro; tested at: not given; reading: higher = stronger binding; measurement: E-score
Target: Sal-like protein 4, full length isoform B (SALL4, Homo sapiens, UniProt Q9UJQ4-2, residues 1-616)
Notes: 8-mer, flanks averaged, mean of replicates
Target sequence (chain): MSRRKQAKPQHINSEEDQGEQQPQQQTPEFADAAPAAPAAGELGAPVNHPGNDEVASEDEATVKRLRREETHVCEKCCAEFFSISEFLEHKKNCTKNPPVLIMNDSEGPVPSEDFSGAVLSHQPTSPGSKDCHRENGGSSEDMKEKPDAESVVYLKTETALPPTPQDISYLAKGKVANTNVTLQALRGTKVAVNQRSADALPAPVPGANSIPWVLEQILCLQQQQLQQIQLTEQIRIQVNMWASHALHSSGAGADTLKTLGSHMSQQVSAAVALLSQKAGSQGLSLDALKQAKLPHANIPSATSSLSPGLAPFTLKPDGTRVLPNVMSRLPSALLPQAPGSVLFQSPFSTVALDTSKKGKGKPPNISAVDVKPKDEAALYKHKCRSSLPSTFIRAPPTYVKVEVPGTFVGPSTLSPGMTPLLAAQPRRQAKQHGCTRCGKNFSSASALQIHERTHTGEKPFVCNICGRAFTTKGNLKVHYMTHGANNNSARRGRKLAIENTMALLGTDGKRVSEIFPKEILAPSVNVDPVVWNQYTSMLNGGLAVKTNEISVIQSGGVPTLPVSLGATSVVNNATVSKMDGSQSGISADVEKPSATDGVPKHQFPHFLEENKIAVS
CGCGCCGA: -0.29
AAGCTAAG: -0.143
GCTCCACC: -0.304
AGAACAGA: 0.0138
CTACCTGC: -0.108
CACTCGAC: -0.16
AGACAGCA: -0.0222
AAGTGAAC: 0.0362
CGCGAACA: -0.04
GAATATGA: 0.331
CGAACCCC: -0.376
AGCACGTG: -0.00563
GCTCAGCC: -0.286
ATTGCATC: 0.0704
CCGGGATC: -0.377
GTGCCGCA: -0.132
CTCGCTTA: 0.0476
AACGCTGG: -0.189
ATTCCGTC: -0.0188
CACCTCAG: -0.155
ACAAACTG: -0.115
AAGTTTCC: 0.118
ACTAAAGG: 0.0964
GAAGACAC: -0.0627
GCTGGACA: -0.122

Series 2 — method: EMSA with sequencing; molecule type: double-stranded DNA, one strand shown; medium: in vitro; tested at: 10 and 20 nM; baseline: negative control set to 0; reading: higher = stronger binding; measurement: normalised bound fraction
Target: Hepatocyte nuclear factor 3-alpha (Foxa1, Mus musculus, UniProt P35582, residues 1-468, full length assumed)
Notes: whole designed probe, mean of two concentrations, ends assumed
Constant ends, left off below: GTGAGCGGTGCCCATTGATGGGGAAC … TTTCACTGGGATCGTGGGGAC
Target sequence (chain): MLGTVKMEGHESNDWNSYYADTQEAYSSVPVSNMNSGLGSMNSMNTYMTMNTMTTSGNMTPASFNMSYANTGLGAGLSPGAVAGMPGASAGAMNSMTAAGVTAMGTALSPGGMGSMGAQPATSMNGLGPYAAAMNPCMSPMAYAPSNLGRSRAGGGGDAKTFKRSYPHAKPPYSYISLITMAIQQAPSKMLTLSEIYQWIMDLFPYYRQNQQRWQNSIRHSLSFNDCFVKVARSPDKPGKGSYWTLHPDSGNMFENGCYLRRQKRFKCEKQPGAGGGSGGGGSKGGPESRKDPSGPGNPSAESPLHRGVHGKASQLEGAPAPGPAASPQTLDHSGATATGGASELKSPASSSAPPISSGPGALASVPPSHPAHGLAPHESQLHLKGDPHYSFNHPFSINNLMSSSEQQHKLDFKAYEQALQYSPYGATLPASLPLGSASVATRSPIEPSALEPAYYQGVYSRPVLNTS
AGATGGCCAACTGGCACTTTTATAATTTTTAAAAGAGCTGACAATTAAAAAGATGTGGGATGGGGGAAAATAAAGAGAATTCCTCCCTAAAAAAGTAATCTAGTACTAATTTTTTTATTATTTGGGTGATCAGTGCTAATCAGATTGACTTTATTTGGAGGCCCTGAGAACCACATGGTACCAAAAATCCAGA: 0.0708 ratio
AAGCAATACATGTTGTCAAAATACAGTGGCAACGGGAACCGAATAGATGTGAAGCAATGAGTGAGCCACCAATTACTAAAATATGTGGTCCTGAGTAAACAAGAGCTTAACGGAGAGATGAGAGGCGCCTGTGAAGTTGGAAAAGGTGGGCATAAGAATGTGTGCTAACTAGACCTGAAGTCTAGGCCGGCTG: 0.45 ratio
GATATTTGCAATCAATCTACTAGTTAACTATAAATGGAACAATGTACTTTCTTCCTTTCTCCAAACTGGAGAAGAGACTTTTAGAAGAATCTGAGTAAACAGGAAAACTTAGTCTTATCTTACAAGTCAAGGAAGCAGTTATTAAGAACATATGGATAAGCATGAAATCAAATCTTATTCTCTGCAAAGGAGC: 0.144 ratio
CTTCCCTAGCCCTGACTTCCCAAGCCTTAGTCATCACCCTCTCTCCCACCCAGGGCTCAGCACAGTACCTGGAACAGTCAAGCCCTCAATAAAAGATTACTGAGTGCATTAAAAAAAAAAAAAAGATTTTAATGAGTCATGCTTTAACTGAAGATTTTAGTGTAGTCAGTCATTGGGCCTTGGATGCCAAAGG: -0.0802 ratio
CTTTTAGTCCTTTTGTTTTACAGTCTCACAGTTAATTGTTCTTAGTTGATTTATCTTTTCTTACTCTTTCATAAGACTTTTCTTTTATCTCAAGATTACTTTGTTCTTATATTACTAAATTACTTAGTTTCTTCTTATCACCTTAGGCTTTGTTTTAATTATTTCCTTTTTATGTTATCTATTTTTCATTTTA: 0.0282 ratio

Series 3 — method: RNA Bind-n-Seq; molecule type: RNA; medium: in vitro; tested at: 200 nM; notes: whole 134-nt RNA, ends assumed; with: 150 mM KCl; baseline: input library; reading: higher = stronger binding; measurement: log2 enrichment
Target: Fragile X messenger ribonucleoprotein 1, C-terminal low-complexity region (Fmr1, Mus musculus, UniProt P35922)
Constant ends, left off below: GGGAGUUCUACAGUCCGACGAUC … UGGAAUUCUCGGGUGUCAAGG
AGUCCUGUGCUACACAUCGUAUGUACCGAAUCGGGGAAAAAAAGGGGAGGGGUGGGGAAAGUAUUAUGUUACGCCGUUCGGAUCUGCACU: 1.05
UGGCCCAGGUGGCAUGCGGGGAGGAAGAGGUGGCCUCAUGGAUCGUGGUGGUCCCGGUGGAAUGUUCAGAGGUGGCCGUGGUGGAGACAG: 0.303
GUCCUGUGCUACACAUCGUAUGUACCGAAUCAAAGUGUGUGUGUGUGUGUGUGUGAAAAAAGUAUUAUGUUACGCCGUUCGGAUCUGCAC: 0.274
UAACUUUAGAGGAGGAUCUGAUGGAUAUGGCAGUGGACGUGGAUUUGGGGAUGGCGAUAAUGGGUAUGGAGGAGGACCUGGAGGUGGCAA: 0.151
AGUCCUGUGCUACACAUCGUAUGUACCGAAUCGGGGUUUUUUUGGGGUGGGGUGGGGAAAGUAUUAUGUUACGCCGUUCGGAUCUGCACU: 1.29
CAAGUCCUGUGCUACACAUCGUAUGUACCGAAUCGGAAAAGGGAAAAGGGAAAAGGAAAGUAUUAUGUUACGCCGUUCGGAUCUGCACUU: -0.713
ACCAUGCAGGUGGGCAUCUUUGGGAAGUGGGGCAAGGGGGGGAUAGGGAGGGGGGUAACACUUUGGGAACAGGUGGUCCCAGGUCGCUUC: 0.907
UGAGAGGUGGAUUUUGUUUAUUUUUUUAGCUCAUUUCCAGGGGUGGGAAUUUUUUUUUAAUAUGUGUCAUGAAUAAAGUUGUUUUUGAAA: 0.32
AAGUCCUGUGCUACACAUCGUAUGUACCGAAUCGGAAAAGGGGAAAAGGGGAAAAGGAAAGUAUUAUGUUACGCCGUUCGGAUCUGCACU: -0.0852

Series 4 — method: RNA Bind-n-Seq; molecule type: RNA; medium: in vitro; tested at: 365 nM; baseline: no-protein control; reading: higher = stronger binding; measurement: RBNS enrichment (R)
Target: RNA binding protein fox-1 homolog 2, RRM domain, GST-SBP tag (RBFOX2, Homo sapiens, UniProt O43251-10, residues 100-194)
Notes: natural RNA segment, single round, ends assumed
Constant ends, left off below: GGGAGUUCUACAGUCCGACGAUC … UGGAAUUCUCGGGUGCCAA
Residues (chain): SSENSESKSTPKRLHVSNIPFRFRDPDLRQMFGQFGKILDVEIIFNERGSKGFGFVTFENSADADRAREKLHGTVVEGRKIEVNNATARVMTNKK
GUGCUUCCUGGGGGUGGGGGAAUGCAGCCACAGUGUCUCCCCCUUCCCUCUUCCACCCCAGCUCCAGCCCUGGUCUUUCUUCCUCUUUCCCAUAACAGAAGCUAUGGCCC: 0.403
UUUAAUUUAAAAGAAUGAUUAUCUGUUUUCUCCUUUUAGAAAAAGAGUCUAAGAAACACAGCAUGUGAAGAACAUUAGAUUUAUACAUUCCAGAAUCUCUGCUCUCAGAG: 2.84
CAGGCCUCCCUGCUGUGCUUUAACACAGGCAGAAGAGGUUCAUGGCAAUAUAAUAGUCAAUGAACUUUCAGUUUAAAUUGUGUACAUUUUUAAAUUGUAAGAUUUUUACU: 0.429
CAGUGUCGGCUAAGGCCUUCCUAGCUCUGGAGGUGACAGGGGAACCUCCAGGUGGAGGAACCACACGGCAGAGUUCUGUGUGUCUGUGUUGAAGCUAGAGGCGGCUAGAG: 0.956
UACCUCCUUCCCAGUGUUGGUGUUCACUCACUAUAUGUCUUUAAGAAAAUUAAAACUAUGGAAAAUUUGUCUAGCAUAUCAGAAGUUGUAAAUGCUAUAUCUGGUAUCCA: 0.615
ACUCUAUUUAACCUUGGACACACUAAUAAGGUUUUAUUUUGAUUGUGUUCGUUUCCCCCCCCCCAAUAGUAAAAUUUCUCCUCCUUUAACUCCUCCUACCCCCCAAGGUA: 0.833
UAGGGCUUUCAUCUUGCCUUGCCCUCCCUUUCUGUCCCAUCUGCAGCCUCACCAGGUGGGCUUGUAGCCUCUAUUAUGCAAAUAUUCGUAGCUCAGCUUUCAGAGCGCUA: 0.88
GGUUCACAGUGCCUGAAUUACACCUGCUCCGAAAACUAGCUUUGUAUUUCUUAUGACUUUGCAUAAGAACUGUUCAUCUUUGGAUCUUGAGCACCUUACAGAUAAAACUU: 0.275

Series 5 — method: RNA Bind-n-Seq; molecule type: RNA; medium: in vitro; tested at: not given; baseline: input RNA pool; reading: higher = stronger binding; measurement: bound/input enrichment
Target: RING finger protein unkempt homolog, zinc fingers 1-6, GST-SBP tag (UNK, Homo sapiens, UniProt Q9C0B0, residues 30-357)
Sequence of UniProt Q9C0B0 (30-357, looked up): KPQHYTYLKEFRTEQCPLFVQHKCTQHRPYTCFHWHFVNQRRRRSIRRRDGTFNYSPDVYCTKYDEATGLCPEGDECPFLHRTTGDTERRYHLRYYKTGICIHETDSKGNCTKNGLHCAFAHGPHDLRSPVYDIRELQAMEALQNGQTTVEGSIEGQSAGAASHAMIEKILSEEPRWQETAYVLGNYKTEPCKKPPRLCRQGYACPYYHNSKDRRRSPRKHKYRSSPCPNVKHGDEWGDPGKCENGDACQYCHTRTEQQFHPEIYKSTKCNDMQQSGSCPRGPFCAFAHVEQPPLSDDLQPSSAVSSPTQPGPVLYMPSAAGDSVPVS
Notes: RNA with constant flanks, human-mouse chimeric sites, ends assumed
Constant ends, left off below: GGGAGUUCUACAGUCCGACGAUC … CAACAGAGGAUUGAGCAUCA
UCUUUAAAAAAAAAAUUACCUUUUCUGACAGUGCUUUAUGGAGUAAAGAUCCACGUUCAAGCUCAAAGAGCAAAGGCUUUGCACGGAGCUCAAACAUAAAAGAAAGAAAGAUUUCUGAGA: 0.163 ratio
CUCAGAGACGUGGCAUAUCAGUAUGUGAAAAAGGGGGCUCGUAUAUUUGUGGAAGGGAAAGUGGACUAUGGCGAGUACAUGGAUAAAAAUAAUGUGAGGCGGCAAGCAACAACAAUCAUA: 0.412 ratio
AAUUUCCUGUCAUACUUUUUAGACAUUCACAUCAGACUUACAGAGCAUUGGGCCUCUUUCUAGGUUUGUGUUAUUUCUCAGCUAUGGAUAUGAUCAAAGAGUGAAAAUGCUUAACUAAUG: 0.462 ratio
AAACAUCUGUCUUUAAGCAUUCCAAGCGAGAAUGCUGGGGUGAUCAUAAUUACCCACGUGCCUUCUGACUGAGCUUUAAUGCUGUUCCAUGUUACAUCUUUCCUUCACUCCAGAAUUGUU: 0.134 ratio
CGCUGGCCCAAGCUGAUGUAAAUGUUUGGCCUCCAUCUCUCAGGCACGUGUGCCUUCUCUUAGUCCCUGUUUUCGGGAUGUUAUGAAUCUCAGUACUGUGGUUUGAAAGCACCAGCUUUG: 0.146 ratio
UCCCAAAUCCAGCAGCUAGAAGGAGCCUUGAGACAAACACUCCACACACAGGGAAGGCGAUAACAUUGUAAAUUGGUUUACAUUUUUUCCCCCUGUGGAUUUUUCUAGAGGUCAUAGUGC: 0.387 ratio
AAAGAGUGGAUAGAGUGUGCACAUGGAAUCGGUGGGACUCGGGCAGAAAAGGAGUGCAAGAUAGAGUUCGAUGACUUCGAAGAGUGCUUGCUUCGGUACAAAACGAUGAGGCGAAUGCAU: 0.344 ratio
CUGGCCUGGCCCUCCCCAGGGGCCUCCUUCUCUGCAUUCACUGCUUCUGCAUCAGAUACUUUCAGCUGCAACUCCCUGCAGGGUGGGGCACCCAUUUCAGGCAGAAGGUUUUGGUACCCU: 0.219 ratio

For quick reference, copied from above (series 1):
CGCGCCGA: -0.29
AAGCTAAG: -0.143
GCTCCACC: -0.304
AGAACAGA: 0.0138
CTACCTGC: -0.108
